Measurements gathered from unrelated publications.
Lines come from different studies, so protocols differ. ± gives the spread as reported. Values after ≈ are worked out from the molar mass of the structure shown.

COc1cc(/C=C/C(=O)N[C@@H](CCCCCC(=O)NO)C(=O)Nc2cccc3cccnc23)cc(OC)c1O  IC50 (Lucilia cuprina; larval weight gain; LS strain, larvae on impregnated cotton wool; 24 h): > 1000 µg
C=C(C)[C@@H]1CC[C@]2(CNCCCN3CCCC3)CC[C@]3(C)[C@H](CC[C@@H]4[C@@]5(C)CC[C@H](OC(=O)CC(C)(C)C(=O)O)C(C)(C)[C@@H]5CC[C@]43C)[C@@H]12  CA-SP1 accumulation (human immunodeficiency virus 1; western blot; HEK293T transfected, subtype B NL4-3, virion lysates; 100 nM; reference: total CA): 70 to 75%
CC[C@@H](C)[C@@H](NC(=O)[C@@H](C)NC(=O)[C@@H](CCCCN)NC(=O)[C@@H](CC(C)C)NC(=O)[C@@H](CC(C)C)NC(=O)[C@H](NC(=O)[C@@H](CCCCN)NC(=O)[C@@H](CC(C)C)NC(=O)[C@@H](CCCCN)NC(=O)[C@@H](CCCCN)NC(=O)[C@@H](CCCCN)NC(=O)[C@@H](CCCCN)NC(=O)[C@@H](C)NC(=O)[C@@H](CCCCN)NC(=O)[C@@H](CO)NC(=O)[C@@H](Cc1ccccc1)NC(=O)[C@H](NC(=O)[C@@H](CCCCN)NC(=O)[C@@H](CC(C)C)NC(=O)[C@@H](Cc1ccccc1)NC(=O)[C@@H](CO)NC(=O)[C@@H](CCCCN)NC(=O)[C@@H](Cc1c[nH]c2ccccc12)NC(=O)[C@@H](CCCCN)NC(C)=O)[C@H](C)O)[C@H](C)O)C(=O)N[C@H](CO)C(=O)N[C@H](CCCCN)C(N)=O  MIC (Acinetobacter baumannii; 985, Mueller-Hinton broth; 24 h, 37 °C): 0.6 µM (≈ 1.87 µg/mL)
CN(C)c1ccc(C(=O)NCCCCCCC(=O)NO)cc1  IC50 (Lucilia cuprina; larval weight gain; LS strain, larvae on impregnated cotton wool; 24 h): 490 µg
CC(=NNC(=N)N)c1nnn(-c2ccc(C#CC3(O)CCCCC3)cc2)c1C  biofilm inhibition (Candida albicans; crystal violet; ATCC 10231; MIC): 75.29 ± 0.53%
CC(C)C(C(=O)Nc1ccc(C(=O)NO)cc1)c1ccccc1 (stereo not drawn)  potency ratio (Lucilia cuprina; larval growth; larvae; reference: cyromazine IC50 over cpd IC50, higher = less potent than reference): ~10 fold
CC(C)Oc1ncnc2c1c(Cl)cn2[C@@H]1O[C@H](CO)[C@@H](O)[C@H]1O  EC50 (Trypanosoma vivax; parasite growth, resazurin; 24 h): 120 nM
CC1=CC[C@@H]2[C@H](C1)C2(C)C  choice of control (Mythimna separata; olfactory preference, Y-tube olfactometer; males; reference: liquid paraffin control): 70%
CC1COCCN1c1nc(NCc2cccnc2C(F)(F)F)c2cccnc2n1 (stereo not drawn)  viability and motility (Brugia malayi; up to 5 µM, microfilariae): no effect
N#Cc1ccc2cccc(O)c2n1  MIC (Achromobacter xylosoxidans; agar dilution; ATCC 27061): > 1500 µM
Nc1ncnc2c1ccn2[C@H]1C[C@H](O)[C@@H](CO)O1  EC50 (Trypanosoma vivax; parasite growth, resazurin; 24 h): > 64000 nM
COC1C=COC2(C)Oc3c(C)c(O)c4c(c3C2=O)C2=NC3(CCN(CC(C)C)CC3)NC2=C(NC(=O)C(C)=CC=CC(C)C(O)C(C)C(O)C(C)C(OC(=O)c2cccnc2)C1C)C4=O (stereo not drawn)  MBC90 (Mycobacteroides abscessus; ATCC 19977, non-replicating, caseum surrogate; 120 h): 2 µM (≈ 1.82 µg/mL)
Oc1c(Cl)cc(Cl)c2cccnc12  MIC (Shewanella putrefaciens; agar dilution; ATCC 8071): 37.4 µM (≈ 8 µg/mL)
CC[C@H](C)[C@@H]1NC(=O)[C@H](CCCNC(=N)N)NC(=O)[C@H](C)NC(=O)[C@H](NC(=O)[C@H](CO)NC(=O)[C@@H](NC(=O)[C@H](NC(=O)[C@@H](CCC(N)=O)NC(=O)[C@H](CO)NC(=O)[C@@H](NC(=O)[C@@H](Cc2ccccc2)NC)[C@@H](C)CC)[C@@H](C)CC)[C@@H](C)CC)[C@H](C)NC1=O  MIC fold decrease (Staphylococcus aureus, Staphylococcus epidermidis, Bacillus subtilis; with: 0.002% polysorbate 80; reference: without polysorbate): 16 to 128 fold
c1ccc(-c2nc(-c3ccc4ccccc4c3)c[nH]2)cc1  EC50 (Schistosoma mansoni; worm killing; mature worms, mixed sexes; 96 h): > 100000 nM
CC1(C)Cc2sc(NC(=O)Cc3ccc(S(N)(=O)=O)cc3)c(C#N)c2CN1CC1CCCCC1  EC50 (dengue virus 2; viral replication; Huh-7, NGC-Nluc; 48 h): 5.39 nM
COC1C=COC2(C)Oc3c(C)c(O)c4c(c3C2=O)C2=NC3(CCN(CC(C)C)CC3)NC2=C(NC(=O)C(C)=CC=CC(C)C(O)C(C)C(O)C(C)C(OC(=O)Nc2cnccn2)C1C)C4=O (stereo not drawn)  IC50 (Mycobacteroides abscessus; ATCC 19977; 50% human serum): 45 nM
CCc1cccc2c(C(=O)COC(=O)C34CC5CC(CC(Br)(C5)C3)C4)c[nH]c12  mRNA level (Arabidopsis thaliana; qRT-PCR, item: BRC1; seedlings 10 days old; 20 µM, 24 h, with: (+)-GR24 1 µM; reference: GR24 alone): decreased
C[C@@H](O)[C@H](NC(=O)c1ccc(C#Cc2ccc(CN3CCOCC3)cc2)cc1)C(=O)NO  MIC90 (Enterobacter spp): 0.5 µg/mL (≈ 1.14 µM)
O=C(CCCCCCC(=O)NO)NO  IC50 (Lucilia cuprina; larval weight gain; LS strain, larvae on impregnated cotton wool; 24 h): 356 µg
CC(=O)[O-].O.O.O.O.[Co+2].[O-]c1ccc(Br)cc1C=NCCN1CCOCC1  inhibition zone diameter (Chromobacterium violaceum; 20 µL of 100 µM per disc): 16 mm
O=c1[nH]cc(C(c2ccc(Cl)cc2)c2c[nH]c(=O)[nH]c2=O)c(=O)[nH]1  IC50 (HIV-1 subtype C; viral replication, item: p24): 120 µg/mL
CC1(CCCCCCCCCCCCCCOCCCOP(=O)(O)CO[C@H](CO)Cn2ccc(N)nc2=O)COC1  selectivity index (human adenovirus 5; cytopathic effect; Adenoid 75; reference: CC50 over EC50): 180
O=c1[nH]cc(C(c2ccccc2Cl)c2c[nH]c(=O)[nH]c2=O)c(=O)[nH]1  antiviral activity (HIV-1 subtype C; item: p24; concentration not given): inactive
Fc1ccc2c(c1)c1nc3ccc(Br)cc3c-1cn2Cc1cn(-c2ccccc2I)nn1  fold change (Giardia duodenalis; UHPLC-Q-TOF-MS, item: Phytosphingosine; trophozoites; IC50, m/z 318.3, retention 6.6 min; reference: 0.25% DMSO): 10
CC(C)(C)OC(=O)Nc1ccc(-c2cc(C(=O)NCCCCCCC(=O)NO)no2)cc1  IC50 (Lucilia cuprina; larval weight gain; LS strain, larvae on impregnated cotton wool; 24 h): > 1000 µg
C=C(C)[C@@H]1CC[C@]2(CCCNCCN3CCN(Cc4ccccc4)CC3)CC[C@]3(C)[C@H](CC[C@@H]4[C@@]5(C)CC[C@H](OC(=O)CC(C)(C)C(=O)O)C(C)(C)[C@@H]5CC[C@]43C)[C@@H]12  CA-SP1 accumulation (human immunodeficiency virus 1; western blot; HEK293T transfected, subtype B NL4-3, virion lysates; 100 nM; reference: total CA): < 1%
Nc1ccn(C[C@@H](CO)OCP(=O)(O)OCCCS(=O)(=O)CCCCCCCCCCC2CCC2)c(=O)n1  selectivity index (Betapolyomavirus hominis; qPCR; Gardner; reference: CC50 over EC50): 34
O=C(/C=C/c1ccccc1)N[C@@H](CCCCCC(=O)NO)C(=O)Nc1cccc2cccnc12  IC50 (Lucilia cuprina; pupation; LS strain, larvae on impregnated cotton wool; 216 h): 20 µg
Brc1ccc(-c2c[nH]c(-c3ccccn3)n2)cc1  lowest concentration reducing egg number (Schistosoma mansoni; egg laying; worm couples): 5 µM
COc1ccc(-n2c(=O)c(C(=O)C3C(=O)CCCC3=O)nc3c(F)cccc32)cc1  ED90 (Monochoria vaginalis; herbicidal activity, paddy pot test, visual rating; 28 days): 6.3 g a.i./10 a
CNc1cc(C(=O)Nc2ccc(Cl)cc2)ccc1OC  serum DHBV DNA (duck hepatitis B virus; viral replication, qPCR; DHBV-infected Pekin ducklings; oral, 50 mg/kg, day 14): inhibited
Cc1ccc(C(c2c[nH]c(=O)[nH]c2=O)c2c[nH]c(=O)[nH]c2=O)cc1  antiviral activity (HIV-1 subtype C; item: p24; concentration not given): inactive
COc1ccc(Cn2ccc3ccc(C(=O)NO)cc32)cc1  IC50 (Lucilia cuprina; pupation; LS strain, larvae on impregnated cotton wool; 216 h): > 1000 µg
COc1ccc(-c2nc(-c3ccccc3OC)[nH]c2-c2ccc(OC)cc2)cc1  EC50 (Schistosoma mansoni; worm killing; female worms; no effect): > 100000 nM
CC(C)C[C@@H]1NC(=O)[C@H](C)N(C)C(=O)CCNC(=O)[C@@H](Cc2ccccc2)NC1=O  leaf development inhibition (Lolium multiflorum; herbicidal activity, germination in agar; 67 µg/mL, 12 days): 23%
Nc1ncnc2c1c(Br)cn2[C@H]1C[C@H](O)[C@@H](CO)O1  EC50 (Trypanosoma vivax; parasite growth, resazurin; 24 h): 4300 nM
CN1C[C@H](c2cccc(C(F)(F)F)c2)[C@@H](C(=O)Nc2ccccc2F)C1=O  growth inhibition reversal (Arabidopsis thaliana; 5 µM, with: IMP): no effect
O=c1[nH]cc(C(c2ccc(Br)cc2)c2c[nH]c(=O)[nH]c2=O)c(=O)[nH]1  antiviral activity (HIV-1 subtype C; item: p24; concentration not given): inactive
CC1(CCCCCCCCCCCCOCCCOP(=O)(O)CO[C@H](CO)Cn2ccc(N)nc2=O)COC1  selectivity index (human adenovirus 5; cytopathic effect; Adenoid 75; reference: CC50 over EC50): > 152
CN(C)c1ccc(C(=O)N[C@@H](CSCCCC(=O)NO)C(=O)NC2CCCc3ccccc32)cc1 (stereo partly drawn)  IC50 (Lucilia cuprina; pupation; LS strain, larvae on impregnated cotton wool; 216 h): 918 µg
Nc1ncnc2c1c(C(F)(F)F)cn2[C@@H]1O[C@H](CO)[C@@H](O)[C@H]1O  EC50 (Trypanosoma vivax; parasite growth, resazurin; 24 h): 820 nM
CC(C)Oc1cccc(NC(=O)CCCN2C(=O)c3ccccc3C2=O)c1  mRNA level (Arabidopsis thaliana; qRT-PCR, item: YUC6; concentration not given, 60 min): decreased
Oc1c(Br)cc(Br)c2nc3c(C(F)(F)F)cc(C(F)(F)F)cc3nc12  MBC (Staphylococcus aureus; microbial killing; 147; clinical isolate): 0.78 µM (≈ 0.382 µg/mL)
CC(C)C[C@H](NC(=O)[C@H](C)N)C(=O)N[C@H](Cc1ccccc1)C(=O)NCCC(=O)O  inhibition (Lolium multiflorum; radicle growth; agar; 67 µg/mL, 12 days, 20 °C): 1%

Excerpt of the above:
CNc1cc(C(=O)Nc2ccc(Cl)cc2)ccc1OC  serum DHBV DNA (duck hepatitis B virus; viral replication, qPCR; DHBV-infected Pekin ducklings; oral, 50 mg/kg, day 14): inhibited
Cc1ccc(C(c2c[nH]c(=O)[nH]c2=O)c2c[nH]c(=O)[nH]c2=O)cc1  antiviral activity (HIV-1 subtype C; item: p24; concentration not given): inactive
COc1ccc(Cn2ccc3ccc(C(=O)NO)cc32)cc1  IC50 (Lucilia cuprina; pupation; LS strain, larvae on impregnated cotton wool; 216 h): > 1000 µg
COc1ccc(-c2nc(-c3ccccc3OC)[nH]c2-c2ccc(OC)cc2)cc1  EC50 (Schistosoma mansoni; worm killing; female worms; no effect): > 100000 nM
CC(C)C[C@@H]1NC(=O)[C@H](C)N(C)C(=O)CCNC(=O)[C@@H](Cc2ccccc2)NC1=O  leaf development inhibition (Lolium multiflorum; herbicidal activity, germination in agar; 67 µg/mL, 12 days): 23%
Nc1ncnc2c1c(Br)cn2[C@H]1C[C@H](O)[C@@H](CO)O1  EC50 (Trypanosoma vivax; parasite growth, resazurin; 24 h): 4300 nM
